Assay results collected from several papers.
Each numbered part is a random draw from the data of one study; scales do not carry over between parts.
UniProt P07947, sequence (whole entry, looked up): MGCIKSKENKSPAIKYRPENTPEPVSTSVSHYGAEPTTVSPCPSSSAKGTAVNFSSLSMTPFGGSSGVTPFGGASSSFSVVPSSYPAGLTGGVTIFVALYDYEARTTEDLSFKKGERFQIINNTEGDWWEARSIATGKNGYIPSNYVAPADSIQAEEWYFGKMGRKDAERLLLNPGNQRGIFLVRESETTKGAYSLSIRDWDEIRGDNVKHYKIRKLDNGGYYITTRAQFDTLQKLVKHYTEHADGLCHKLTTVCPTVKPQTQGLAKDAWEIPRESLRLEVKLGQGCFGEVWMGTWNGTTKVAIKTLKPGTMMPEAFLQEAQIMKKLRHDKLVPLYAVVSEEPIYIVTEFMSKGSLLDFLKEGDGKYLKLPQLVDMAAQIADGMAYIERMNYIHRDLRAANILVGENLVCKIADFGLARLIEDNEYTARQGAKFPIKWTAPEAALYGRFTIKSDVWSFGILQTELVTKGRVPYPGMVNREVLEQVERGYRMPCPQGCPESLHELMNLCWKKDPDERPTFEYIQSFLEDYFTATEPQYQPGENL
UniProt Q6XUX3, sequence (whole entry, looked up): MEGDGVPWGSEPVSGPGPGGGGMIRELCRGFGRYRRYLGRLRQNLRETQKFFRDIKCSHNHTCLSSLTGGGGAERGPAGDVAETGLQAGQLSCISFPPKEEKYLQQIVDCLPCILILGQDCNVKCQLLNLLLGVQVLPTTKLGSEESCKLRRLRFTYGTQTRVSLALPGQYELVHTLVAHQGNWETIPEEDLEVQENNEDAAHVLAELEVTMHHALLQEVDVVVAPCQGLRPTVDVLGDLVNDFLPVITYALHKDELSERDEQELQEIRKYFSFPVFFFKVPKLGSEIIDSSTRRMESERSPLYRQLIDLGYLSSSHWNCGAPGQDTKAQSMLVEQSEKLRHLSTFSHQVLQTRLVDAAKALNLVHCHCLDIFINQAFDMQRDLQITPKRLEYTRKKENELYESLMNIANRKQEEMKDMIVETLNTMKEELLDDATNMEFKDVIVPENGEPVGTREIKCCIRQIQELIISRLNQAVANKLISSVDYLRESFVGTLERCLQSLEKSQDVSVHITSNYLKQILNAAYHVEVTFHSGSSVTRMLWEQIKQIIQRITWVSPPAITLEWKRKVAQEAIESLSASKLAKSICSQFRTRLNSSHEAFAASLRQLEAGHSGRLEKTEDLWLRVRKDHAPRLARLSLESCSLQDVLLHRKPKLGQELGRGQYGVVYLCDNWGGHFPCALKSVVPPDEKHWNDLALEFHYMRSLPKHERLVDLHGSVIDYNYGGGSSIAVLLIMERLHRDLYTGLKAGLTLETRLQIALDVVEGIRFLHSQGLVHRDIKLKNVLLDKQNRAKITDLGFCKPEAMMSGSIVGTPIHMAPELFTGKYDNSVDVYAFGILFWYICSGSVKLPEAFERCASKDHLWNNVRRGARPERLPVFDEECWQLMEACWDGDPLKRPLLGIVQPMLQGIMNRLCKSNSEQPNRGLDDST
UniProt Q02779, sequence (whole entry, looked up): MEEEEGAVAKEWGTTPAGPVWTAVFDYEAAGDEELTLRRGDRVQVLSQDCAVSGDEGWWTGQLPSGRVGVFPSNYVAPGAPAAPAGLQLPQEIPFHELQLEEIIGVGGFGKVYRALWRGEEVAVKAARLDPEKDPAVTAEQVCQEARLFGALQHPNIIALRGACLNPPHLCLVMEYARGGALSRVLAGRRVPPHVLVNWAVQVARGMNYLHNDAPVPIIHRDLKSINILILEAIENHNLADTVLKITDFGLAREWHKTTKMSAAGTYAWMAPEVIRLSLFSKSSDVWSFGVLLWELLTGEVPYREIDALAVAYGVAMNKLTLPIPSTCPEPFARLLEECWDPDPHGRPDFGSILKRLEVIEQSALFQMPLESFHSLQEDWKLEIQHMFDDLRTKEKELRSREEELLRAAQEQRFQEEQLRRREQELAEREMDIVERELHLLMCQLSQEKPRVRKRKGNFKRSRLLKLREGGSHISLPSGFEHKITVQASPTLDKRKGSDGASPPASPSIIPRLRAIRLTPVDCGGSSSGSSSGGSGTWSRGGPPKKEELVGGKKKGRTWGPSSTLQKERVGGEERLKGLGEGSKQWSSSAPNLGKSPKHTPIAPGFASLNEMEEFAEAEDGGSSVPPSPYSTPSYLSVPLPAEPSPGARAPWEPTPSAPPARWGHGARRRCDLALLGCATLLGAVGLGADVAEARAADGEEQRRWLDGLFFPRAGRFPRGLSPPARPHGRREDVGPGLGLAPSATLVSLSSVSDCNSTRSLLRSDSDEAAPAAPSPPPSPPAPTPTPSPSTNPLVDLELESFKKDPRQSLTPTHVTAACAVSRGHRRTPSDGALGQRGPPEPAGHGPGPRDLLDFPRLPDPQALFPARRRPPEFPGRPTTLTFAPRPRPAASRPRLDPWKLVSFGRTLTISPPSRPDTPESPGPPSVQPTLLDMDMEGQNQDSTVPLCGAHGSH
UniProt Q9P289, sequence (whole entry, looked up): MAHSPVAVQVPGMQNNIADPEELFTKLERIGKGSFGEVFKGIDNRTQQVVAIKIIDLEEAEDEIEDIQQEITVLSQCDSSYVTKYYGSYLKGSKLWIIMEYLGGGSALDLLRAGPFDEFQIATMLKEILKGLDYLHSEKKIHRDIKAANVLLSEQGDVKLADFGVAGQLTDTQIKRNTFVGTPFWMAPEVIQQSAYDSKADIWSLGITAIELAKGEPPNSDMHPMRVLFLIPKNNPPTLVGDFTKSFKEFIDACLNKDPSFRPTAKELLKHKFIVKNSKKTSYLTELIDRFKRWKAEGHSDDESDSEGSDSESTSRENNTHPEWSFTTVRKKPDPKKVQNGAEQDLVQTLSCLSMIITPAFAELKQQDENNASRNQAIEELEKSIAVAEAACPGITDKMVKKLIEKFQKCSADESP
UniProt P06241, sequence (whole entry, looked up): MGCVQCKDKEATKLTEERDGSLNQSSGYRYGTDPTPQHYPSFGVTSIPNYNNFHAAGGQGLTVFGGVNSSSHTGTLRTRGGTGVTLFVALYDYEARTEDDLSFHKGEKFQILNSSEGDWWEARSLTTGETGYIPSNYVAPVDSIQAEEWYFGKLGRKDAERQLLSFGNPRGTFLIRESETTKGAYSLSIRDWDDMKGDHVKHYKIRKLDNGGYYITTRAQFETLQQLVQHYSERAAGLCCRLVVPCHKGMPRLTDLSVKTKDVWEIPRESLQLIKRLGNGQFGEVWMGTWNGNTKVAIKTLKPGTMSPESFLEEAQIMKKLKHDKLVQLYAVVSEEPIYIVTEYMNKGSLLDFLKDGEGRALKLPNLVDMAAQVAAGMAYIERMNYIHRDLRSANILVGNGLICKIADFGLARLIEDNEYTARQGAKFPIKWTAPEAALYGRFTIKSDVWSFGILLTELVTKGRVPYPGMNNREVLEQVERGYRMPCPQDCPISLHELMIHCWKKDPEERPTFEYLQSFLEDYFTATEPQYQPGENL

Block 1
Compound: Nc1c(C(=O)NCc2ccc(C(=O)NCCCC3CCCCC3)cc2)cnn1-c1ccccc1
Effect on: cell-free assay
Method: competition with immobilised ligand
Tested at: 0.1 µM
Measurement: remaining binding
PLK1 (Homo sapiens, UniProt P53350): 100%
YES1 (Homo sapiens, UniProt P07947): 100%
NUAK1 (Homo sapiens, UniProt O60285): 100%
MAP3K10 (Homo sapiens, UniProt Q02779): 85%
DSTYK (Homo sapiens, UniProt Q6XUX3): 100%
STK26 (Homo sapiens, UniProt Q9P289): 97%
SYK (Homo sapiens, UniProt P43405): 74%
FYN (Homo sapiens, UniProt P06241): 100%
Ribosomal protein S6 kinase alpha-1, N-terminal kinase domain (RPS6KA1, Homo sapiens, UniProt Q15418): 100%
BMP2K (Homo sapiens, UniProt Q9NSY1): 100%
EPHB2 (Homo sapiens, UniProt P29323): 100%
EPHB4 (Homo sapiens, UniProt P54760): 100%
AKT2 (Homo sapiens, UniProt P31751): 96%
LTK (Homo sapiens, UniProt P29376): 100%

Block 2
Target: Beta-1 adrenergic receptor (ADRB1, Homo sapiens, UniProt P08588)
UniProt P08588, sequence (whole entry, looked up): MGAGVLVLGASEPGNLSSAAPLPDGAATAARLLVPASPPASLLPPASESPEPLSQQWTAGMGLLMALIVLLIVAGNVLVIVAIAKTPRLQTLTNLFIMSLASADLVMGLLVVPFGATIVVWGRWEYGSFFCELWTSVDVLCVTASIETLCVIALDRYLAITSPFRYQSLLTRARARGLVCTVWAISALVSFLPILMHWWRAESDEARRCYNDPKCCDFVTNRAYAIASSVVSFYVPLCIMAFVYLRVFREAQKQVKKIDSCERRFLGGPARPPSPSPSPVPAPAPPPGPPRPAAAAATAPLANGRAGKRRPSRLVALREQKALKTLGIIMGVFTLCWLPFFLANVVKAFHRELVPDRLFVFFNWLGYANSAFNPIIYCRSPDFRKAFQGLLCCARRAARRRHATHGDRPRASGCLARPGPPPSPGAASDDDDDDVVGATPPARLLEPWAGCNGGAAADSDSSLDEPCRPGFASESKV
Action: agonist
Measurement: EC50
Cc1ccc(C(=O)Nc2ccc(Oc3cc4cnn(C)c4cc3-c3cn[nH]c3)c(F)c2)c(=O)n1-c1ccc(F)cc1: ≥ 100 µM
CN(C)c1ccc(C(=C2C=CC(=[N+](C)C)C=C2)c2c(O)c(S(=O)(=O)[O-])cc3cc(S(=O)(=O)O)ccc23)cc1: 35.5 µM
Cc1noc2c(-c3cccnc3)cc(-c3ccc(F)cc3)nc12: ≥ 100 µM
CN(C)c1cccc(-c2nc(N3CCOCC3)cc3c2CN(Cc2cnn(C)c2)C3=O)c1: ≥ 100 µM
COc1cc(CNCCc2ccccc2C)ccc1OCC(O)CN1CCOCC1 (stereo not shown): 22.4 µM
O=c1cc(N2CCNCC2)nc2sc(C(F)(F)F)nn12: ≥ 100 µM
COc1ccccc1CN1C(=O)COC[C@@H]1[C@H](O)c1ccc(NC(=O)CCc2ccccc2)cc1: ≥ 100 µM
Cc1noc2c(N3CCOCC3)cc(-c3ccc(F)cc3)nc12: ≥ 100 µM
CCN(Cc1cccc([S+](=O)([O-])O)c1)c1ccc(C(=C2C=CC(=[N+](CC)Cc3cccc([S+](=O)([O-])O)c3)C=C2)c2ccc(O)cc2[S+](=O)([O-])O)cc1: 35.5 µM

Block 3
Cell line: mouse MPNST tumor cells
Method: high-content nuclear imaging
Refers to: cell number
Tested at: 10 µM
Time: 12 h
Setting: mean of 2 replicates
Reference: plate mean
Direction: higher = more cells
Measurement: nuclei count
Cc1ccc(S(=O)(=O)N[C@@H](CCN)C(=O)N[C@@H](Cc2ccccc2)C(N)=O)c2ccccc12: 0.447 z-score
CC(C)Cc1sc(N)nc1-c1ccc(P(=O)(O)O)o1: 2.5 z-score
O=C(Nc1ccc(C(O)(C(F)(F)F)C(F)(F)F)cc1)c1ccccc1Cl: 0.94 z-score
NS(=O)(=O)c1nn2cc(-c3ccccc3)nc2s1: -3.27 z-score
CCOC(=O)CCNc1cc(N2CCc3ccccc3CC2)nc(-c2ccccn2)n1: -4.4 z-score
CCc1cncnc1N1CCN(Cc2nc3ccc(C(F)(F)F)cc3[nH]2)CC1: 2.23 z-score
N#Cc1ccc(NCCNCC(=O)N2CCC[C@H]2C#N)nc1: 2.91 z-score
CC1CCc2c(N3CCC(O)CC3)c(F)cc3c(=O)c(C(=O)O)cn1c23 (stereo not shown): 0.774 z-score

Block 4
Target: Tyrosine-protein kinase Mer (MERTK, Homo sapiens, UniProt Q12866)
UniProt Q12866, sequence (whole entry, looked up): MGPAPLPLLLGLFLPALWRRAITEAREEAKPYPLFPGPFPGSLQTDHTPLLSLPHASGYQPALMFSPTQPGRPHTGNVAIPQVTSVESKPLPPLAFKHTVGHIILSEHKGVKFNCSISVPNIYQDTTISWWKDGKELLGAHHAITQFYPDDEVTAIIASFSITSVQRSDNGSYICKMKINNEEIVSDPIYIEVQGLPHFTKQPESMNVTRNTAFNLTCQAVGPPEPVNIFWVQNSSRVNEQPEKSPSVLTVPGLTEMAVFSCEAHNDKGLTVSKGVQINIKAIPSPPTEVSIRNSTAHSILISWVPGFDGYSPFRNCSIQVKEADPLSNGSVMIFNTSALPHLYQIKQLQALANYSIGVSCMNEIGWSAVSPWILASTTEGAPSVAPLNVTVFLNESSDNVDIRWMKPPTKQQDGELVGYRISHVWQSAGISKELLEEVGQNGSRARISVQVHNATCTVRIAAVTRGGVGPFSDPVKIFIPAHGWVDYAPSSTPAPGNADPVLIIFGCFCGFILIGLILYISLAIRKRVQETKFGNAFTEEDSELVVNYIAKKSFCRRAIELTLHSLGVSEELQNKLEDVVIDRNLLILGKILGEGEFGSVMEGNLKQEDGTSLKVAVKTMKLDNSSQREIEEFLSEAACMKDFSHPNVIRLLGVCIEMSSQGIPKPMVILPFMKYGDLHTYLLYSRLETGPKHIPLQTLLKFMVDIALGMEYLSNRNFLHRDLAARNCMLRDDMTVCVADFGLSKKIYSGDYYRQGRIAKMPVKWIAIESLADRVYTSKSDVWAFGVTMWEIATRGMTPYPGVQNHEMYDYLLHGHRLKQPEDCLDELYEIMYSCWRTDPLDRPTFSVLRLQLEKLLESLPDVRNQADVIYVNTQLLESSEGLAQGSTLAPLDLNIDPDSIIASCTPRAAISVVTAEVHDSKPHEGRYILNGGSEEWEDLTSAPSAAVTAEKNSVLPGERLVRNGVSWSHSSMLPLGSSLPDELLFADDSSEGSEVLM
Effect on: enzyme activity
Action: inhibitor
Tested at: 0.5 µM
Reference: control
Measurement: remaining activity
COc1ccc(OC)c2c(=S)c3ccccc3[nH]c12: 86.7%
CCOC(=O)c1c(C)[nH]c(/C=C2\C(=O)Nc3ccccc32)c1C: 69.3%
O=C1NC(=O)C(c2cn(CCCn3ccnc3)c3ccccc23)=C1Nc1ccccc1: 86.1%
Cn1sc(=O)n(Cc2ccccc2)c1=O: 92.8%
C#Cc1cccc(Nc2ncnc3cc(OCCOC)c(OCCOC)cc23)c1: 99%
COc1ccc(CNC(=O)Nc2ncc([N+](=O)[O-])s2)cc1: 91.2%
CNC(=O)c1cc(Oc2ccc(NC(=O)Nc3ccc(Cl)c(C(F)(F)F)c3)cc2)ccn1: 88.2%
CO[C@H]1C[C@@H]2CC[C@@H](C)[C@@](O)(O2)C(=O)C(=O)N2CCCC[C@H]2C(=O)O[C@H]([C@H](C)C[C@@H]2CC[C@@H](O)[C@H](OC)C2)CC(=O)[C@H](C)/C=C(\C)[C@@H](O)[C@@H](OC)C(=O)[C@H](C)C[C@H](C)/C=C/C=C/C=C/1C: 90.9%
Nc1[nH]nc2nc3ccccc3nc12: 92.9%
COc1ccc(C(=O)Nc2sc3c(c2C(N)=O)CCCC3)cc1OC: 85.4%
Cc1nc(-c2ccccc2)c(-c2ccncc2)o1: 85.6%
Cc1cccc(-c2[nH]c(C(C)(C)C)nc2-c2ccc3c(c2)OCO3)n1: 82%
O=C(O)c1ccc2c3c1cccc3c(=O)n1c3ccccc3nc21: 77.7%
Cc1ccc(Nc2nccc(N(C)c3ccc4c(C)n(C)nc4c3)n2)cc1S(N)(=O)=O: 57.2%
OCC(O)CCON=C1C(c2c(O)[nH]c3ccccc23)=Nc2ccccc21 (stereo not shown): 49.4%
Cn1c2ccccc2c2c3c(c4c5ccccc5n(CCC#N)c4c21)CNC3=O: 59.9%
Nc1ccc2ncnc(NCCc3ccc(Oc4ccccc4)cc3)c2c1: 102%
O=S(=O)(c1cccc2cnccc12)N1CCCNCC1: 88.3%

A few entries again (block 4):
Cc1cccc(-c2[nH]c(C(C)(C)C)nc2-c2ccc3c(c2)OCO3)n1: 82%
CCOC(=O)c1c(C)[nH]c(/C=C2\C(=O)Nc3ccccc32)c1C: 69.3%
O=C1NC(=O)C(c2cn(CCCn3ccnc3)c3ccccc23)=C1Nc1ccccc1: 86.1%
